# Experimental data from different studies.
# Parts stem from different laboratories: compare values within a part only. Several values in a cell are separate wells, animals, samples, runs or records.
# Chain of UniProt P51812 (whole entry, looked up): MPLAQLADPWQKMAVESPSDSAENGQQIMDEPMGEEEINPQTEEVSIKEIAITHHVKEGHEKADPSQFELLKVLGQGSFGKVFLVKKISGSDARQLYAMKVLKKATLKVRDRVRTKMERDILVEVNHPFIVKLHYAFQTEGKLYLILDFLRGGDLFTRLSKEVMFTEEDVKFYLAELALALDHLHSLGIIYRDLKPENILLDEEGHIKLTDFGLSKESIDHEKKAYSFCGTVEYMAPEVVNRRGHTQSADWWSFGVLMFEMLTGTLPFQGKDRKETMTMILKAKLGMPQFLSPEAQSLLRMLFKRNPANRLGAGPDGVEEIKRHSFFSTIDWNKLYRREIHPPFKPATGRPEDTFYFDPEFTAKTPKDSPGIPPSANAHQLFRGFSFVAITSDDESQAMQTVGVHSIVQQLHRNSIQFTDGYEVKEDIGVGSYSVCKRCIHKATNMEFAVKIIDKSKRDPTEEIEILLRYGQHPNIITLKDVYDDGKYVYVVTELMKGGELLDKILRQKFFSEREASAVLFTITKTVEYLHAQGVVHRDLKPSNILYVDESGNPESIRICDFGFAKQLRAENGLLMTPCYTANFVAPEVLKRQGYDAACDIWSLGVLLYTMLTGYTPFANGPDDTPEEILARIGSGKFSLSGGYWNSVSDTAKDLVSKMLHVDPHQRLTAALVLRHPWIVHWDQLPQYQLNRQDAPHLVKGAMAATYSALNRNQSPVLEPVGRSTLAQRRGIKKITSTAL
# Chain of UniProt Q9UQB9 (whole entry, looked up): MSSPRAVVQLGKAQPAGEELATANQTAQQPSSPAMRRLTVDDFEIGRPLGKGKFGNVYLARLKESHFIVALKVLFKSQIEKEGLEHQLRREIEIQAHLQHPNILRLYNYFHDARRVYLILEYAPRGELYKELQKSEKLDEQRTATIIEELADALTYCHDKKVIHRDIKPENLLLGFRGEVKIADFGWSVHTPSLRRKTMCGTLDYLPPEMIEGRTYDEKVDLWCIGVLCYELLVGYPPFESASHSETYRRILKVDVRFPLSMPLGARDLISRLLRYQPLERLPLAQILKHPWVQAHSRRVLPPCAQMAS
# Chain of UniProt P51451 (whole entry, looked up): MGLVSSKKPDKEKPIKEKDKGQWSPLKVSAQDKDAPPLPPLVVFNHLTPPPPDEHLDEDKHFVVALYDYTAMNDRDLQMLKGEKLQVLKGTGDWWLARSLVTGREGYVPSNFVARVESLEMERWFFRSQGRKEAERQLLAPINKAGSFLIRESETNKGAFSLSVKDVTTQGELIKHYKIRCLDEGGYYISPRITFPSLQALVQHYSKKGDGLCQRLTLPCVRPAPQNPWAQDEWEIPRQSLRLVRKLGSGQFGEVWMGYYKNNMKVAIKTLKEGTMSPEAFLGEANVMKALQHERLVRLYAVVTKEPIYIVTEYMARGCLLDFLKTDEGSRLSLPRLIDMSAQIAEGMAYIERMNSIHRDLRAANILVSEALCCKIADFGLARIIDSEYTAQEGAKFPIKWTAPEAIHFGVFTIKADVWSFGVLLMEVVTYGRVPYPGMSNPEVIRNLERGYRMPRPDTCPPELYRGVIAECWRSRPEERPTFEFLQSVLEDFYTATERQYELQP

# Series 1
# Compound: O=C(Nc1cnn(-c2csc(C(=O)NC3COC3)c2)c1)Nc1c(F)cccc1Cl
# Read-out: enzyme activity
# Tested at: 5 µM
target,test,how to read,remaining activity
"NEK1 (Homo sapiens, UniProt Q96PY6)",,baseline: untreated control,68.7%
"EPHA6 (Homo sapiens, UniProt Q9UF33)",inhibitor,,95.7%
"MYLK3 (Homo sapiens, UniProt Q32MK0)",,baseline: untreated control,92.1%
"Aurora kinase C (AURKC, Homo sapiens, UniProt Q9UQB9)",,baseline: untreated control,58.1%

# Series 2
# Organism: Sarcocystis neurona
# Read-out: parasite growth
# Tested at: 10 µM
# Time: 96 h
SMILES,inhibition [%]
CCC(=O)NS(=O)(=O)c1ccc(-c2c(-c3ccccc3)noc2C)cc1,-6.9
CN(C)CCCC1(c2ccc(F)cc2)OCc2cc(C#N)ccc21 (stereo not drawn),-6
Cn1cc[nH]c1=S,-9
N[C@@H](C(=O)N[C@@H]1C(=O)N2C(C(=O)O)=C(CSc3c[nH]nn3)CS[C@H]12)c1ccc(O)cc1,-11.1

# Series 3
# Target: Calcium/calmodulin-dependent protein kinase type II subunit alpha (CAMK2A, Homo sapiens, UniProt Q9UQM7)
# Chain of UniProt Q9UQM7 (whole entry, looked up): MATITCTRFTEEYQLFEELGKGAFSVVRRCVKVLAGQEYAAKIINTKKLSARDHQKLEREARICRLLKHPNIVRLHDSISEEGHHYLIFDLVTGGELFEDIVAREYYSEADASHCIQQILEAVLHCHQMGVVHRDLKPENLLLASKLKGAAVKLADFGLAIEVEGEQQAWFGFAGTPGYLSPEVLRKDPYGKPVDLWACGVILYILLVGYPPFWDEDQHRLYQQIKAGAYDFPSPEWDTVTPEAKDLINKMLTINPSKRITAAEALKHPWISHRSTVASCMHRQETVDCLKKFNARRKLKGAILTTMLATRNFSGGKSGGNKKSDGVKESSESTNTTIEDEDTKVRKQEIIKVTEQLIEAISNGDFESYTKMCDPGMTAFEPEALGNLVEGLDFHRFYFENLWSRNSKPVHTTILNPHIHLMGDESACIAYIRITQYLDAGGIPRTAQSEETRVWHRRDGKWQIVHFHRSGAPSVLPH
# Read-out: enzyme activity
# Mode: inhibitor
# Tested at: 10 µM
SMILES,inhibition [%]
C=C1C[C@@]23CC[C@H]4[C@@](C)(CCC[C@@]4(C)C(=O)O)[C@@H]2CC[C@]1(O[C@@H]1O[C@H](CO)[C@@H](O)[C@H](O[C@@H]2O[C@H](CO)[C@@H](O)[C@H](O)[C@H]2O)[C@H]1O[C@@H]1O[C@H](CO)[C@@H](O)[C@H](O)[C@H]1O)C3,-18
O=c1cc(-c2ccc(O)cc2)oc2cc(O)c([C@@H]3O[C@H](CO)[C@@H](O)[C@H](O)[C@H]3O[C@@H]3OC[C@H](O)[C@H](O)[C@H]3O)c(O)c12,-13
C=C1C(=O)O[C@@H]2CC(C)=C([C@@H](C)CCCOC(C)=O)[C@@H](O)[C@H]12,-2
CCC/C=C1\OC(=O)C2=C1CC[C@H]1[C@H]3C=C4C(=O)O/C(=C\CCC)[C@@]4(CC3)[C@@H]21,-17

# Series 4
# Cell line: mouse MPNST tumor cells
# Method: high-content immunofluorescence imaging
# Measured: nuclear SOX9
# Tested at: 10 µM
# Time: 12 h
# Notes: mean of 2 replicates
# Baseline: DMSO control
# Direction: higher = more nuclear SOX9
SMILES,nuclear SOX9 intensity
CC(=O)CCCCn1c(=O)c2c(ncn2C)n(C)c1=O,98.7 % of DMSO
CC(C)(C)NC(=O)[C@H]1CC[C@H]2[C@@H]3CC[C@H]4NC(=O)C=C[C@]4(C)[C@H]3CC[C@]12C,98.7 % of DMSO
Cc1cc(Nc2nc(N[C@@H](C)c3ncc(F)cn3)ncc2Cl)[nH]n1,127 % of DMSO
CC(=O)NCCCS(=O)(=O)O,99.2 % of DMSO and 114 % of DMSO
c1ccc(-c2ccc(C(c3ccccc3)n3ccnc3)cc2)cc1 (stereo not drawn),126 % of DMSO

# Series 5
# Species: mouse
# Sample: microsomes or S9
# Tested at: 2 µM
# Time: 0.5 h
SMILES,remaining compound
COc1cc(=O)[nH]cc1C(=O)NC1CCN(c2c(F)cccc2F)C1 (stereo not drawn),73.5%
COCCOCC(=O)NCC1CCCCC(=O)N1 (stereo not drawn),96.2%
O=C(Nn1cnc2ccccc21)c1nc(-c2ccc(F)cc2)n2c1CCCCC2,0.0779%

# Series 6
# SMILES: CC(=O)N1CCC(c2ccc(C(=O)NC(=N)N)cc2C(F)(F)F)CC1
# Tested at: 1 µM
target,test,remaining binding
"CDK14 (Homo sapiens, UniProt O94921)","cell-free assay, competition with immobilised ligand",100%
"CDK11A (Homo sapiens, UniProt Q9UQ88)","binding, competition with immobilised ligand",92%
"LYN (Homo sapiens, UniProt P07948)","cell-free assay, competition with immobilised ligand",100%
"CAMK2B (Homo sapiens, UniProt Q13554)","cell-free assay, competition with immobilised ligand",100%
"SIK1 (Homo sapiens, UniProt P57059)",competition binding,100%
"Myosin-IIIb (MYO3B, Homo sapiens, UniProt Q8WXR4)","binding, competition with immobilised ligand",100%
"Ribosomal protein S6 kinase alpha-3, C-terminal kinase domain (RPS6KA3, Homo sapiens, UniProt P51812)","cell-free assay, competition with immobilised ligand",100%
"STK39 (Homo sapiens, UniProt Q9UEW8)","cell-free assay, competition with immobilised ligand",90%
"BLK (Homo sapiens, UniProt P51451)","cell-free assay, competition with immobilised ligand",100%
"GAK (Homo sapiens, UniProt O14976)","cell-free assay, competition with immobilised ligand",100%
"FLT3 (Homo sapiens, UniProt P36888, ITD)","cell-free assay, competition with immobilised ligand",91%
"ERBB4 (Homo sapiens, UniProt Q15303)","cell-free assay, competition with immobilised ligand",100%
"PAK1 (Homo sapiens, UniProt Q13153)","cell-free assay, competition with immobilised ligand",100%
"FLT3 (Homo sapiens, UniProt P36888, D835Y)","cell-free assay, competition with immobilised ligand",100%
"STK32A (Homo sapiens, UniProt Q8WU08)","cell-free assay, competition with immobilised ligand",100%
"CDK2 (Homo sapiens, UniProt P24941)","cell-free assay, competition with immobilised ligand",100%
"Cyclin-dependent kinase 4, with cyclin D3 (CDK4, Homo sapiens, UniProt P11802)","cell-free assay, competition with immobilised ligand",100%
"KDR (Homo sapiens, UniProt P35968)","cell-free assay, competition with immobilised ligand",93%
"PKN2 (Homo sapiens, UniProt Q16513)","cell-free assay, competition with immobilised ligand",100%
"MAPKAPK2 (Homo sapiens, UniProt P49137)","cell-free assay, competition with immobilised ligand",100%
"ACVR2A (Homo sapiens, UniProt P27037)","cell-free assay, competition with immobilised ligand",100%
"EGFR (Homo sapiens, UniProt P00533, A750P/del747-749)","cell-free assay, competition with immobilised ligand",100%
"CDK15 (Homo sapiens, UniProt Q96Q40)","cell-free assay, competition with immobilised ligand",100%
"PRKX (Homo sapiens, UniProt P51817)","cell-free assay, competition with immobilised ligand",100%
"ABL2 (Homo sapiens, UniProt P42684)","cell-free assay, competition with immobilised ligand",100%

# Series 7
# Target: Beta-1 adrenergic receptor (ADRB1, Homo sapiens, UniProt P08588)
# Chain of UniProt P08588 (whole entry, looked up): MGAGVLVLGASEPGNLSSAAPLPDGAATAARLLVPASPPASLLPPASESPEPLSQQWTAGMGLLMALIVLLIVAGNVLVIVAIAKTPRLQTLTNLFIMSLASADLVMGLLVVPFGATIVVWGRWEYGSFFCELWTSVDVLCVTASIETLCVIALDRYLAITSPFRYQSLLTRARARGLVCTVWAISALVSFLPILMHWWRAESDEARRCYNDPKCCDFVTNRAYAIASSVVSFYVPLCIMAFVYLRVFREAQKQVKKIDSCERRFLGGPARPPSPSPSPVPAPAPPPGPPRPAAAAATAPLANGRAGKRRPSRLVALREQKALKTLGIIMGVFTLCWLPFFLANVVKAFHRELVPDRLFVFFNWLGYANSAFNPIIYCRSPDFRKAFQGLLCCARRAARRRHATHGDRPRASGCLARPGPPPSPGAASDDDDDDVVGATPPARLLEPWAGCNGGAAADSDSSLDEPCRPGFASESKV
# Mode: antagonist
Compound,IC50
O=C(Cc1ccccc1)Nc1ccc([C@@H](O)[C@H]2COCC(=O)N2Cc2ccccc2)cc1,≥ 100 µM
CC1(C)Cc2c(c(N3CCOCC3)nc3sc(C(=O)Nc4cccc(Cl)c4)c(N)c23)CO1,≥ 100 µM
CC(=O)NC(Cc1ccc(I)cc1)C(=O)NCC(N)C(=O)c1ccccc1 (stereo not drawn),≥ 100 µM
COc1ccc(-c2ccc3ncc4c(c3c2)n(-c2ccc(N3CCNCC3)c(C(F)(F)F)c2)c(=O)n4C)cn1,≥ 100 µM

# Series 8
# Target: DNA polymerase theta, ATPase domain (POLQ, Homo sapiens, UniProt O75417)
# Chain of UniProt O75417 (whole entry, unmodified, looked up): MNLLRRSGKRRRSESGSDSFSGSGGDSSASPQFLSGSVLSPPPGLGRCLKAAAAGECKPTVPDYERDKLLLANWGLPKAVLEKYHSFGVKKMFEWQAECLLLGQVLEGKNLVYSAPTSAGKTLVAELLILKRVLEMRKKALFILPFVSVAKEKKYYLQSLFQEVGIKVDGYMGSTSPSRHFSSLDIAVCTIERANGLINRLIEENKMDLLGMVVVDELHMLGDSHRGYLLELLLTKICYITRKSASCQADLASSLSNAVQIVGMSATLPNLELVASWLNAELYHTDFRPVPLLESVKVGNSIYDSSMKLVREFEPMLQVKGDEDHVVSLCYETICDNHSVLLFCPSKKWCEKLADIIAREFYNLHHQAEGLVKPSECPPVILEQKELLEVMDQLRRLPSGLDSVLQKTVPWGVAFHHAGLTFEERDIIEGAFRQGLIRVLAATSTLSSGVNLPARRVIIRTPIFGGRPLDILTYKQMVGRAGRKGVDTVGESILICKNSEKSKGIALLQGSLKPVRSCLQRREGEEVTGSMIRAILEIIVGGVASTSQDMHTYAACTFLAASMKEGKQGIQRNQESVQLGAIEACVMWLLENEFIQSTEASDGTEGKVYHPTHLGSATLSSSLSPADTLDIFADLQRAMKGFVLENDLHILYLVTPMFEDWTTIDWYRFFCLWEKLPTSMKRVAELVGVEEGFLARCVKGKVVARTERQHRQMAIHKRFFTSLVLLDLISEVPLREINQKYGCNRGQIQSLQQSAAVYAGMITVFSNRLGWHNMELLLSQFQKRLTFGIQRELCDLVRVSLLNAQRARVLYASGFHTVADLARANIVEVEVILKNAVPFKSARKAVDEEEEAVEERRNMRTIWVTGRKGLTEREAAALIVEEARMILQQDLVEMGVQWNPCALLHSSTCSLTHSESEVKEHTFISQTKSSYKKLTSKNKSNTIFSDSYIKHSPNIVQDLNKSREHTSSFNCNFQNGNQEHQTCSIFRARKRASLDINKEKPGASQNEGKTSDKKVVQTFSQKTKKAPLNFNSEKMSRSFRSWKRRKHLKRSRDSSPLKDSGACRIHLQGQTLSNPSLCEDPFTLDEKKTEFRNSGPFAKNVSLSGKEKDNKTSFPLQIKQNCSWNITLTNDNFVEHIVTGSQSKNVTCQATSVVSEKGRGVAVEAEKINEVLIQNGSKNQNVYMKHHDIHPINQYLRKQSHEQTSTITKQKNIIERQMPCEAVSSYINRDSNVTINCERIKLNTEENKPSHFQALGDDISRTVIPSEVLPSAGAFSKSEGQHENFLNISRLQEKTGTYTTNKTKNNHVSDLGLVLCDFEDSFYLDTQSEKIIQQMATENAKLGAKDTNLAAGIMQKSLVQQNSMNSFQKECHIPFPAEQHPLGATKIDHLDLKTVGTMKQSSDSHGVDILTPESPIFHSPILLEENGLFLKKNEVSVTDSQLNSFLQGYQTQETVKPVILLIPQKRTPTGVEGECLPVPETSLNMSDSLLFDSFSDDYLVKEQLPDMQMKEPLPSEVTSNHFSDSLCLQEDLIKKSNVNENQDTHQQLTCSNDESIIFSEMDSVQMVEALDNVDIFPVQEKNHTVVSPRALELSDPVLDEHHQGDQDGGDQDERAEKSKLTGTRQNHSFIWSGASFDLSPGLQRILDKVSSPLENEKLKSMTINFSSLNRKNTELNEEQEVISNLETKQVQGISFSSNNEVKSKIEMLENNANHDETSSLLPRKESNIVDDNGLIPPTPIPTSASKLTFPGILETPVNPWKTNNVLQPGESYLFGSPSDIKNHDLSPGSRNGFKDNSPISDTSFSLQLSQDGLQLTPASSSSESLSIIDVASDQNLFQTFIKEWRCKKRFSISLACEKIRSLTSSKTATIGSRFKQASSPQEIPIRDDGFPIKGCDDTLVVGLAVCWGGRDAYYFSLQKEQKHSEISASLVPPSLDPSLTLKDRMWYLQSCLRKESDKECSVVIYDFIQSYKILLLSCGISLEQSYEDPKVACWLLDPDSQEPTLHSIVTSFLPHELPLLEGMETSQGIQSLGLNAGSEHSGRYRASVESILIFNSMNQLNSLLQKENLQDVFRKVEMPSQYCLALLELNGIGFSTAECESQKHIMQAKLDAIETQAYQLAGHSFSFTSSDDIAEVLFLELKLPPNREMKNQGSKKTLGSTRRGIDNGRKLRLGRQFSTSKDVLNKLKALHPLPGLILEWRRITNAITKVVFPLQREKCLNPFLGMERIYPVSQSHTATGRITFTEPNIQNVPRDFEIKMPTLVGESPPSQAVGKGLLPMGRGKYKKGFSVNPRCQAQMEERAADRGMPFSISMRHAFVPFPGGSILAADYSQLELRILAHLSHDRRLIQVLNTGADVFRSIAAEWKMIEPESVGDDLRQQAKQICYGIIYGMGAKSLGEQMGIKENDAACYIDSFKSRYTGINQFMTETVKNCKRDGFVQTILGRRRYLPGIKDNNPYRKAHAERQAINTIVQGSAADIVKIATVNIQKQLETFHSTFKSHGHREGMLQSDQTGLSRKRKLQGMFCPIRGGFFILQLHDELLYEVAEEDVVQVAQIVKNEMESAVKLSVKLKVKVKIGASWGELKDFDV
# Read-out: enzyme activity
# Mode: inhibitor
# Tested at: 77 µM
# Baseline: untreated
SMILES,remaining activity [%]
CCCN(CCc1ccccc1)C1CCc2c(O)cccc2C1 (stereo not drawn),101
Cc1ccccc1OCC(O)CO (stereo not drawn),110
COc1ccc2c(c1)c(CC(=O)O)c(C)n2Cc1ccc(Cl)cc1,66.7
CN(C)[C@@H]1C(O)=C(C(=O)NCNCCCC[C@H](N)C(=O)O)C(=O)[C@@]2(O)C(O)=C3C(=O)c4c(O)cccc4[C@@](C)(O)[C@H]3C[C@@H]12,101
CCc1cccc(CC)c1NC(=O)N1Cc2[nH]nc(NC(=O)c3ccc(N4CCN(C)CC4)cc3)c2C1,102

# A few entries again (series 2):
SMILES,inhibition [%]
CCC(=O)NS(=O)(=O)c1ccc(-c2c(-c3ccccc3)noc2C)cc1,-6.9
CN(C)CCCC1(c2ccc(F)cc2)OCc2cc(C#N)ccc21 (stereo not drawn),-6
Cn1cc[nH]c1=S,-9
N[C@@H](C(=O)N[C@@H]1C(=O)N2C(C(=O)O)=C(CSc3c[nH]nn3)CS[C@H]12)c1ccc(O)cc1,-11.1
